Published values collected from several papers.
Parts stem from different laboratories: compare values within a part only.
UniProt P35462, sequence (whole entry, looked up): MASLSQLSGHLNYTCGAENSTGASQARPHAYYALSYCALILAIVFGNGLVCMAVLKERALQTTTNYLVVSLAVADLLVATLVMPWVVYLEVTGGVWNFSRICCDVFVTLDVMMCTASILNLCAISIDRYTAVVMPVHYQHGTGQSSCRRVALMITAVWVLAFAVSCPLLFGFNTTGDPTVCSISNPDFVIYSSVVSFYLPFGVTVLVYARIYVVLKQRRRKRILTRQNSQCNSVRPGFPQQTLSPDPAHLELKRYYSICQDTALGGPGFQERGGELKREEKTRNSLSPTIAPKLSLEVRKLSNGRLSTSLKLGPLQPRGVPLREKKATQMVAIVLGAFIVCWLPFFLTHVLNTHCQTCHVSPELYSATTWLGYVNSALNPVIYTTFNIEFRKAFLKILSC
UniProt Q86UE8, sequence (whole entry, looked up): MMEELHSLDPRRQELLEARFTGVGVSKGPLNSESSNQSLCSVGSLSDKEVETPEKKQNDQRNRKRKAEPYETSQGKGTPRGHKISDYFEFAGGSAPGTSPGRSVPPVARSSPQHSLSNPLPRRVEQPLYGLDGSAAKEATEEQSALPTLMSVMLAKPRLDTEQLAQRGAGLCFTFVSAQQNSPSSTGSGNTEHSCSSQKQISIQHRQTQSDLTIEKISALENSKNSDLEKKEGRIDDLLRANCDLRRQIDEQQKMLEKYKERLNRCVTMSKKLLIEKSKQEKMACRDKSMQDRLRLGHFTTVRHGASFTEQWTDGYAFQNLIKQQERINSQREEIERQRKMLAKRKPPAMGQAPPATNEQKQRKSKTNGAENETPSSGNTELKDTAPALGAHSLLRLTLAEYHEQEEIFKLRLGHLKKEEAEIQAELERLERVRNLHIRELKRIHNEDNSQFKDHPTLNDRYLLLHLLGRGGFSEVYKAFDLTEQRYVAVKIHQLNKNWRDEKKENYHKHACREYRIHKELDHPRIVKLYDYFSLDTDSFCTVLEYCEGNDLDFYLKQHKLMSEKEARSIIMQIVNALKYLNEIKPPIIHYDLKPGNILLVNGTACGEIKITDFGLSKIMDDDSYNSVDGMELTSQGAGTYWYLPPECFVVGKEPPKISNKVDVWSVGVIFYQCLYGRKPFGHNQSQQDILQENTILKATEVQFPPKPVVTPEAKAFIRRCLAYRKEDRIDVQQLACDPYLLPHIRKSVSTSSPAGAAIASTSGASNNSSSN
UniProt P07550, sequence (whole entry, looked up): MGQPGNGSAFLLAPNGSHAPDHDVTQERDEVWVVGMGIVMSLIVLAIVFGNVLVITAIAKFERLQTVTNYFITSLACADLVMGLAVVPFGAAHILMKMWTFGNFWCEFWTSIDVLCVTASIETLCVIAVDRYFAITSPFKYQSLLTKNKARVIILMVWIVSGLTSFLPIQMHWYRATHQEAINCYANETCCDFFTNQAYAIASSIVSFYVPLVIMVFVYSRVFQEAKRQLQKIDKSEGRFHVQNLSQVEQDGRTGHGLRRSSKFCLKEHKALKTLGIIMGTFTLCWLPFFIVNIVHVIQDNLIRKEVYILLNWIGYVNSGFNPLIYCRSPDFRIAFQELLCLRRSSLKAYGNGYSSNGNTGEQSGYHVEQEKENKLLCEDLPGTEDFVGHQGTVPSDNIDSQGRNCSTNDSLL
UniProt P35348, sequence (whole entry, looked up): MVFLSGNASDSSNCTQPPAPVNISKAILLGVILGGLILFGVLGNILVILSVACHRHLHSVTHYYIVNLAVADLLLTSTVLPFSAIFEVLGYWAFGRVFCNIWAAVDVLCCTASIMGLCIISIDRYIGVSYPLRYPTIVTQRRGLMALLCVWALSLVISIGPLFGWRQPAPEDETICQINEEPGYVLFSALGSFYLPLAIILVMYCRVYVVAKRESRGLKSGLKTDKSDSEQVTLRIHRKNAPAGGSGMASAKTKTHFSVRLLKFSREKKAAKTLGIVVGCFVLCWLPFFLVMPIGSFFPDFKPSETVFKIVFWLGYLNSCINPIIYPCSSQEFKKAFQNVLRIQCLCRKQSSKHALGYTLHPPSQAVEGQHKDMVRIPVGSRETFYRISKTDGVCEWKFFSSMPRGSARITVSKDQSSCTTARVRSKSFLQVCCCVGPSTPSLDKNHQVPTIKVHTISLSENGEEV
UniProt Q96L34, sequence (whole entry, looked up): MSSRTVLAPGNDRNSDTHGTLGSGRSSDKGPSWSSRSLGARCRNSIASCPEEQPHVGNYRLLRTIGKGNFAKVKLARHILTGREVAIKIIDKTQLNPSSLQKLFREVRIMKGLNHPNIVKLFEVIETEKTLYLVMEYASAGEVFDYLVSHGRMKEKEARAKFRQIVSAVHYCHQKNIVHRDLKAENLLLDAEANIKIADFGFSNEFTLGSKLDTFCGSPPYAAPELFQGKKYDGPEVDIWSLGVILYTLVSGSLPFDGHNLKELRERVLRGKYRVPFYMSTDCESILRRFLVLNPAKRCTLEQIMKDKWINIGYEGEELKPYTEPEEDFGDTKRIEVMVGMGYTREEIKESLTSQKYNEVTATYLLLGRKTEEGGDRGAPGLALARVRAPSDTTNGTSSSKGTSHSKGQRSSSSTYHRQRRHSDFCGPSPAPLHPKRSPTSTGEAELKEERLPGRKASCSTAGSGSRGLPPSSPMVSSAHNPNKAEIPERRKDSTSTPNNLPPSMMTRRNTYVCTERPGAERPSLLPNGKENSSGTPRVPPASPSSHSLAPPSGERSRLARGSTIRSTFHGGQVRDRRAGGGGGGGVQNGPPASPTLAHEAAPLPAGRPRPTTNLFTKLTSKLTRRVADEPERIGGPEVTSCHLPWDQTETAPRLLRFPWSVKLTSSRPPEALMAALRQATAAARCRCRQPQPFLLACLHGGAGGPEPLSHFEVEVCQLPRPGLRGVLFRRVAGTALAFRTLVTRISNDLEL
UniProt P49761, sequence (whole entry, looked up): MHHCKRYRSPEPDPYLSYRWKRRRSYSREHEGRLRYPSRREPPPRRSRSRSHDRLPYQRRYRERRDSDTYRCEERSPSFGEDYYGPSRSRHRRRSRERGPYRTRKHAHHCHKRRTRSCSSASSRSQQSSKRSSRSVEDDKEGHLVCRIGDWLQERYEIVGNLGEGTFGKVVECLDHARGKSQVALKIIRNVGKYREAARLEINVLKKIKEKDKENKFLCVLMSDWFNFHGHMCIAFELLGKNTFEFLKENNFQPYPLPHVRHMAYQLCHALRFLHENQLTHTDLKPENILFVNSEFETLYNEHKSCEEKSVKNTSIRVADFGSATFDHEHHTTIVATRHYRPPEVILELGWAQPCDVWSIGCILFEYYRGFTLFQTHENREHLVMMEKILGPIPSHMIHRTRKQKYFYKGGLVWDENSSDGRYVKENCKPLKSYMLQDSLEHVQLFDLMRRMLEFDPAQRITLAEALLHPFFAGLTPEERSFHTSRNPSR
UniProt Q8WXR4, sequence (whole entry, looked up): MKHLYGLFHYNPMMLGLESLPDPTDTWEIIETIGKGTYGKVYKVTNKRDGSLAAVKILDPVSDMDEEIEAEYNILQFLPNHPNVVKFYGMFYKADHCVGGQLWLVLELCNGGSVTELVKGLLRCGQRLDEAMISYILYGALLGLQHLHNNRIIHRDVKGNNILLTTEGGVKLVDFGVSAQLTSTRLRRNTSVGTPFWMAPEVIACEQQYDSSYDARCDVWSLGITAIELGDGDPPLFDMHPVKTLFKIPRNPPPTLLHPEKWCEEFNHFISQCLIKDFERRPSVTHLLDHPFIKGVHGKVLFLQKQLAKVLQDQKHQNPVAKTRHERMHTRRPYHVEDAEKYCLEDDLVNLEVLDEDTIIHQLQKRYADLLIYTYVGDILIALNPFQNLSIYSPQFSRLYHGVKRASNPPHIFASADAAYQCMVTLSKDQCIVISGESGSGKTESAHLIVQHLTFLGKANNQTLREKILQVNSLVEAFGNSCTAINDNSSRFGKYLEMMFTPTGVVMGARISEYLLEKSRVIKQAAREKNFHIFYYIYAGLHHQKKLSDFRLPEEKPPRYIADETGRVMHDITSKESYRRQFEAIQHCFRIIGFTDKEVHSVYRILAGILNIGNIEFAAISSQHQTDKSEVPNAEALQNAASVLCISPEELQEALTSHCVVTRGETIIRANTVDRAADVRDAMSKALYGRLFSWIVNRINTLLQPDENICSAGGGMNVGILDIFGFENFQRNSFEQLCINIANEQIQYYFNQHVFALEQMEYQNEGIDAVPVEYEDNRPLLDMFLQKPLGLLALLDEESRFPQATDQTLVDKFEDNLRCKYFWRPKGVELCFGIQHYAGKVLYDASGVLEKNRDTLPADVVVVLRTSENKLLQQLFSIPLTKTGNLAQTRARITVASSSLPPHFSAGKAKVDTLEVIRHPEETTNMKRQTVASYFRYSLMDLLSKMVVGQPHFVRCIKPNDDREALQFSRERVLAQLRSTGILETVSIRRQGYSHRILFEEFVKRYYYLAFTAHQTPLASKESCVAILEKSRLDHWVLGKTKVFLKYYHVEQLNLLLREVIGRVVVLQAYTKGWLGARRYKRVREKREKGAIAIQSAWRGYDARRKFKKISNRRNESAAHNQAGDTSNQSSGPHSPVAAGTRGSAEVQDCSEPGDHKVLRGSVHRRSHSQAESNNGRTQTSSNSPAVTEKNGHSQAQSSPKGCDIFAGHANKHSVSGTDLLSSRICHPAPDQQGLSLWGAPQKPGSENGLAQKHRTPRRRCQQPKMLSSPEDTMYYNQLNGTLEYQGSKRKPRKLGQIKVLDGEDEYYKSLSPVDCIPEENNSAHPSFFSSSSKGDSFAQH

Study 1
Organism: Plasmodium berghei
Action: inhibitor
Cell line: Huh-7
Strain: GFP-expressing, liver stage
Tested at: 10 µM
Time: 24 h
Reference: untreated control
| SMILES | infection rate [%] |
| --- | --- |
| CO[C@@H]1[C@@H](OC(N)=O)[C@@H](O)[C@H](Oc2ccc3c(O)c(NC(=O)c4ccc(O)c(CC=C(C)C)c4)c(=O)oc3c2C)OC1(C)C | 78.4 |
| Cc1onc(-c2ccccc2)c1C(=O)N[C@@H]1C(=O)N2[C@@H]1SC(C)(C)[C@@H]2C(=O)O | 98 |
| CC(=O)[C@H]1CC[C@H]2[C@@H]3CCC4=CC(=O)CC[C@]4(C)[C@H]3CC[C@]12C | 70 |
| CCOC(N)=O | 91.6 |
| Nc1ccc(S(=O)(=O)Nc2ncccn2)cc1 | 104 |
| CC[C@H]1OC(=O)C[C@@H](O)[C@H](C)[C@@H](O[C@@H]2O[C@H](C)[C@@H](O)[C@H](N(C)C)[C@H]2O)[C@@H](CCN2C[C@H](C)C[C@H](C)C2)C[C@@H](C)C(=O)/C=C/C(C)=C/[C@@H]1CO[C@@H]1O[C@H](C)[C@@H](O)[C@@H](OC)[C@H]1OC | 114 |

Study 2
Target: Eukaryotic initiation factor 4A-I (EIF4A1, Homo sapiens, UniProt P60842)
UniProt P60842, sequence (whole entry, looked up): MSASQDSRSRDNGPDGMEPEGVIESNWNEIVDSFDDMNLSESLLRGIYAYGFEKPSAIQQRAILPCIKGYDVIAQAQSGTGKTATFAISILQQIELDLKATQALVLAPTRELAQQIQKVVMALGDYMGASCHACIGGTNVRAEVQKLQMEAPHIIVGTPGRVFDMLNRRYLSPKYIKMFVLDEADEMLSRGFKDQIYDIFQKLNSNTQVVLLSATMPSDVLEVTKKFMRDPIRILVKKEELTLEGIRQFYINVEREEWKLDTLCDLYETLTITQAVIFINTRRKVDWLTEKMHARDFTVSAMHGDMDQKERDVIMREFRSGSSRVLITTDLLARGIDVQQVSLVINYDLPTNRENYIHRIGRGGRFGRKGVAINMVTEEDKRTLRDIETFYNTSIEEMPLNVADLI
Observed: RNA clamping
Method: fluorescence polarization
Tested at: concentration not given
Notes: mean of two replicates
Together with: FAM-labelled poly r(AG)8 RNA
| SMILES | fluorescence polarization change [mP] |
| --- | --- |
| COc1ccc([C@@]23Oc4cc(OC)cc(OC)c4[C@]2(O)[C@H](O)[C@H](C(=O)c2cc4cccc(OC)c4o2)[C@H]3c2ccccc2)cc1 | 5.7 |
| C#CCNC(=O)CCCn1c(-c2ccccc2)nc2c(c1=O)[C@@H](c1ccccc1)[C@]1(c3ccc(OC)cc3)Oc3cc(OC)cc(OC)c3[C@]21O | 22.4 |
| COC(=O)[C@H]1[C@@H](O)[C@@]2(O)c3c(OC)cccc3N(C)[C@@]2(c2ccc(Br)cc2)[C@@H]1c1ccccc1 | 3.2 |
| COC(=O)[C@@H]1[C@@H](c2ccccc2)[C@]2(c3ccc(OC)cc3)Oc3cc(OC)cc(OC)c3[C@@]23NC(CCl)=N[C@@]13O | 23.3 |

Study 3
Compound: FC(F)(F)c1ccc2c(c1)nc(-c1cccnc1)n2C1CC1
Observed: cell-free assay
Tested at: 10 µM
| target | inhibition [%] |
| --- | --- |
| DRD4 (Homo sapiens, UniProt P21917) | -3.28 |
| ADRA1A (Homo sapiens, UniProt P35348) | -12.8 |
| ADRB2 (Homo sapiens, UniProt P07550) | 1.56 |
| ADRA1B (Homo sapiens, UniProt P35368) | 11.7 |
| DRD3 (Homo sapiens, UniProt P35462) | -1.96 |

Study 4
Structure (SMILES): O=C1Nc2ccc(Br)cc2/C1=C/c1cc2c([nH]1)CCCC2
Observed: enzyme activity
Action: inhibitor
Tested at: 0.5 µM
Reference: control
| target | remaining activity |
| --- | --- |
| DCLK2 (Homo sapiens, UniProt Q8N568) | 98.2% |
| TLK2 (Homo sapiens, UniProt Q86UE8) | 101% |
| ROCK1 (Homo sapiens, UniProt Q13464) | 98.8% |
| MINK1 (Homo sapiens, UniProt Q8N4C8) | 26.4% |
| CAMK4 (Homo sapiens, UniProt Q16566) | 97.5% |
| MAPK11 (Homo sapiens, UniProt Q15759) | 96.8% |
| CLK3 (Homo sapiens, UniProt P49761) | 101% |
| MARK2 (Homo sapiens, UniProt Q7KZI7) | 77% |
| PRKG2 (Homo sapiens, UniProt Q13237) | 92.4% |
| MARK4 (Homo sapiens, UniProt Q96L34) | 82.9% |
| CDC42BPB (Homo sapiens, UniProt Q9Y5S2) | 114% |
| Myosin-IIIb (MYO3B, Homo sapiens, UniProt Q8WXR4) | 55.1% |
| AKT2 (Homo sapiens, UniProt P31751) | 90.3% |

A few entries again (study 4):
| target | remaining activity |
| --- | --- |
| CDC42BPB (Homo sapiens, UniProt Q9Y5S2) | 114% |
| MAPK11 (Homo sapiens, UniProt Q15759) | 96.8% |
